# Experimental data of several laboratories.
# Compare with care: the assays were run in different laboratories. Values joined by “and” are separate records of one study, mostly repeats; a detail may differ. ± marks the error that the study gave.
# CHRM1: Muscarinic acetylcholine receptor M1 (CHRM1, Homo sapiens, UniProt P11229)
# Sequence of UniProt P11229 (whole entry, looked up): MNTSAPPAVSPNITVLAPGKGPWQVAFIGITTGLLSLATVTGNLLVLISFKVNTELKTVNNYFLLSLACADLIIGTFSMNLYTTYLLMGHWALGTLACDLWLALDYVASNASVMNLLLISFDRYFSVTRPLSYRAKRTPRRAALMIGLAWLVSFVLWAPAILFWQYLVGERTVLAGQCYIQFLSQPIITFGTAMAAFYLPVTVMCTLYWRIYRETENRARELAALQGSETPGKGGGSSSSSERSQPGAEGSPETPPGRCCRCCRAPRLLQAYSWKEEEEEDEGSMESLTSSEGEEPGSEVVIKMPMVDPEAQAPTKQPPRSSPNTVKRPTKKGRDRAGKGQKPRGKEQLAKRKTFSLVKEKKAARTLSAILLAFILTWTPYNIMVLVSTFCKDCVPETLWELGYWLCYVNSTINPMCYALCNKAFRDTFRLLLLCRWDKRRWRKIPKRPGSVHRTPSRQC
Molecule,target or system,test,test system,setting,how to read,endpoint,value
O=c1cc(-c2ccccc2OCc2ccc(-c3nccs3)cc2)ncn1C1CCCCC1O (stereo not drawn),CHRM1,"positive allosteric modulator, IP1 accumulation",CHO-M1 cells,"10 µM, 60 min, 37 °C, added: ACh","baseline: ACh alone, higher = stronger potentiation",ΔpEC50 of ACh,1.62 ± 0.35 log units
CC(O)C(C)n1ncn(-c2ccc(N3CCN(c4ccc(OCC5COC(Cn6cncn6)(c6ccc(Cl)cc6Cl)O5)cc4)CC3)cc2)c1=O (stereo not drawn),,"enzyme activity, inhibitor",rat kidney homogenate,"10 µM, added: 50 nM corticosterone",baseline: rat over human enzyme,potency ratio,≥ 10 fold
CC[C@H](C)[C@H](NC(=O)[C@H](Cc1ccc(O)cc1)NC(=O)[C@@H](NC(=O)[C@@H](NC(=O)[C@H](CC(C)C)NC(=O)[C@@H](NC(=O)[C@H](CO)NC(=O)[C@H](Cc1ccc(O)cc1)NC(=O)[C@@H](NC(=O)[C@H](CCC(N)=O)NC(=O)CNC(=O)[C@@H](NC(=O)[C@H](CC(C)C)NC(=O)[C@H](CO)NC(=O)[C@H](CC(C)C)NC(=O)[C@H](Cc1ccc(O)cc1)NC(=O)[C@H](CCCNC(=N)N)NC(=O)[C@H](CCC(N)=O)NC(=O)[C@H](CC(C)C)NC(=O)[C@H](CCC(=O)O)NC(=O)[C@H](CCC(N)=O)NC(=O)CNC(=O)CNC(=O)[C@H](CCC(=O)O)NC(=O)[C@H](CCCCN)NC(=O)[C@H](CC(C)C)NC(=O)[C@H](CCCCN)NC(=O)[C@H](C)NC(=O)[C@H](CCCCN)NC(=O)[C@H](CC(C)C)NC(=O)[C@H](CCCCN)NC(=O)[C@@H](N)CCC(=O)O)C(C)C)C(C)C)[C@@H](C)O)C(C)C)[C@@H](C)O)C(=O)N[C@@H](CO)C(=O)N[C@@H](CC(=O)O)C(=O)N[C@@H](Cc1c[nH]c2ccccc12)C(=O)N[C@@H](Cc1c[nH]c2ccccc12)C(=O)N[C@H](C(=O)N[C@@H](CC(C)C)C(=O)NCC(=O)NCC(=O)N[C@@H](CCC(=O)O)C(=O)N[C@@H](CCCCN)C(=O)N[C@@H](CC(C)C)C(=O)N[C@@H](CCCCN)C(=O)N[C@@H](C)C(=O)N[C@@H](CCCCN)C(=O)N[C@@H](CC(C)C)C(=O)N[C@@H](CCCCN)C(=O)N[C@@H](CCC(=O)O)C(=O)O)[C@@H](C)O,,gel filtration,human plasma,"1 h, 37 °C",,fraction bound to HDL,80.8% and 81%
Cc1ccc(COc2ccccc2-c2cc(=O)n(C3CCCCC3O)cn2)cn1 (stereo not drawn),CHRM1,"allosteric agonist, IP1 accumulation",CHO-M1 cells,"1 µM, unit not given",baseline: maximum ACh response,change in baseline activity,-13.4 ± 2.9
YGIGVGW,,,"peptide, human polyclonal IgM RF MCC","concentration not given, 5 µg/mL mAb II-481 coated, added: RF at 50% max binding concentration",,inhibition,14%
CC[C@@H]([C@H](C)O)n1ncn(-c2ccc(N3CCN(c4ccc(OC[C@@H]5CO[C@@](Cn6cncn6)(c6ccc(F)cc6F)C5)cc4)CC3)cc2)c1=O,,"enzyme activity, inhibitor",mouse kidney homogenate,"10 µM, added: 50 nM corticosterone",baseline: mouse over human enzyme,potency ratio,~4 fold
NYLAWYQ,,,"peptide, human polyclonal IgM RF MCC","concentration not given, 5 µg/mL mAb II-481 coated, added: RF at 50% max binding concentration",,inhibition,40%
Cn1c[n+]([C@@H]2O[C@H](COP(=O)(O)OP(=O)([O-])OP(=O)(O)OC[C@H]3O[C@@H](n4cnc5c(=O)[nH]c(N)nc54)[C@H](O)[C@@H]3O)[C@@H](O)[C@H]2O)c2nc(N)[nH]c(=O)c21,,capped luciferase mRNA,rabbit reticulocyte lysate,1 h,baseline: compound-capped mRNA,relative translation efficiency,1 ± 0.02
COc1ccc(COc2ccccc2-c2cc(=O)n(C3CCCCC3O)cn2)cc1 (stereo not drawn),CHRM1,"allosteric agonist, IP1 accumulation",CHO-M1 cells,"1 µM, unit not given",baseline: maximum ACh response,change in baseline activity,-4.8 ± 3.9
CCC(C)n1ncn(-c2ccc(N3CCN(c4ccc(OCC5COC(Cn6cncn6)(c6ccc(Cl)cc6Cl)O5)cc4)CC3)cc2)c1=O (stereo not drawn),,"enzyme activity, inhibitor",rat kidney homogenate,"10 µM, added: 50 nM corticosterone",baseline: rat over human enzyme,potency ratio,≥ 10 fold
CCn1cc(-c2ccc(COc3ccccc3-c3cc(=O)n(C4CCCCC4O)cn3)cc2)cn1 (stereo not drawn),CHRM1,"positive allosteric modulator, IP1 accumulation",CHO-M1 cells,"10 µM, 60 min, 37 °C, added: ACh","baseline: ACh alone, higher = stronger potentiation",ΔpEC50 of ACh,2.6 ± 0.39 log units
RDGAWFA,,,"peptide, human polyclonal IgM RF CLAU","concentration not given, 5 µg/mL mAb II-481 coated, added: RF at 50% max binding concentration",,inhibition,0%

# Excerpt of the above:
Molecule,target or system,test,test system,setting,how to read,endpoint,value
YGIGVGW,,,"peptide, human polyclonal IgM RF MCC","concentration not given, 5 µg/mL mAb II-481 coated, added: RF at 50% max binding concentration",,inhibition,14%
RDGAWFA,,,"peptide, human polyclonal IgM RF CLAU","concentration not given, 5 µg/mL mAb II-481 coated, added: RF at 50% max binding concentration",,inhibition,0%
